Published values of several laboratories.
Each line is one published result; not all experiments were run side by side. Several values in a cell are separate wells, animals, samples, runs or records. ± gives the spread as reported.

SMILES | assay | test system | conditions | how to read | endpoint | value
CC1(C)OC[C@H](C2CCC2)N[C@@H]1c1ccc(Cl)c(Cl)c1 | shake-flask, 1-octanol/buffer | – | pH 7.4 | – | logD | > 4.7
COc1cc(N2CCC3(CCN(C)CC3)CC2)ccc1Nc1ncc(Cl)c(Nc2ccccc2P(C)(C)=O)n1 | population PK model | human | oral, fed subjects | – | absorption lag time | 0.472 h
CCN1/C(=C/C(C)=O)Sc2ccc(F)cc21 | – | cynomolgus monkey | oral, 30 mg/kg, 2 h post-dose | – | diastolic blood pressure | 75 ± 3 mmHg
CCOc1c([C@H](C)n2nc(C)c3c(N)ncnc32)cc(Cl)c(F)c1[C@@H]1CNC(=O)C1 | item: QTcF change above 60 ms | previously treated B-cell malignancy | oral, 45 mg once daily, overall population | relative to: baseline | patients | 0%
CCOC(=O)N1C[C@@H](c2ccc(Cl)cc2)N[C@@H](c2ccc(C(F)(F)F)cc2)C1 | shake-flask, 1-octanol/buffer | – | pH 7.4 | – | logD | > 4.7
C[Si](C)(C)O[Si](C)(C)C | – | 1-octanol/water | concentration not given | – | enthalpy of phase change | 4.64 kcal/mol
CCOC(=O)N1C[C@@H](C2CCCC2)N[C@@H](c2cccc(Br)c2)C1 | shake-flask, 1-octanol/buffer | – | pH 7.4 | – | logD | > 4.7
CC(C)(C(=O)N1CCOc2c(C#N)cncc2C1)C(F)F | item: eye disorders | human | oral, 20 mg twice daily, 14 days, multiple ascending dose | – | subjects with adverse event | 0%
Cc1ccc([C@@H]2O[C@H](CO)[C@@H](O)[C@H](O)[C@H]2O)cc1Cc1ccc(-c2ccc(F)cc2)s1 | – | Japanese type 2 diabetes patients | 100 mg, day 3, 24 h urine collection | relative to: baseline | urinary magnesium excretion change | -0.671 mg
CCCCCCOC(=O)NC(=N)c1ccc(NCc2nc3cc(C(=O)N(CCC(=O)OCC)c4ccccn4)ccc3n2C)cc1 | – | EpiIntestinal microtissues | 5 µM, 2 h, no inhibitor | – | efflux ratio | 3.6
O=C(Nc1ccc(OC(F)(F)Cl)cc1)c1cnc(N2CC[C@@H](O)C2)c(-c2ccn[nH]2)c1 | per treatment cycle, item: bilirubin increase | human patients | oral, dose not given, 28 day cycle | – | grade ≥2 event rate | 0.3%
FC(F)(F)c1ccc(CNc2ccc(Cc3c[nH]c4ncc(Cl)cc34)cn2)cn1 | item: Fatigue | patients with advanced solid tumours, non-TGCT cohort | oral, 1000 mg/day, any grade | – | treatment-related adverse events | 40%
CNC(=O)c1ccc(-c2cnc3ncc(Cc4ccc5ncccc5c4)n3n2)cc1F | – | Japanese patients | oral, 400 mg, any grade | – | Hypokalaemia dose reduction/interruption | 1%
CC#CC(=O)N1CCC[C@H]1c1nc(-c2ccc(C(=O)Nc3ccccn3)cc2)c2c(N)nccn12 | – | PBS | 100 µM, 23 h, pH 7.45, 37 °C, with: cysteine 10 mM | – | cysteine adduct formation | 98%
C=CC(=O)NC1CCN(c2ncc3ncnc(Nc4ccc(Oc5ccc6c(c5)ncn6C)c(C)c4)c3n2)CC1 | – | human, male, plasma | oral, 240 mg, adjusted geometric means | relative to: fed over fasted | AUC0-∞ ratio | 126%
Clc1ccc([C@@H]2COC[C@H](c3cc(Cl)cc(Cl)c3)N2)cc1 | shake-flask, 1-octanol/buffer | – | pH 7.4 | – | logD | > 4.7
O=C(O)c1ccc(C(=O)Nc2cc(C3CC3)[nH]n2)cc1 | – | octanol/buffer | 67 µM, pH 7.4 | – | logD | -0.91
CN1CCN(c2cccc(-c3ccc4ncnc(Nc5ncco5)c4c3)c2)CC1 | – | human liver microsomes | – | – | CLint | 34 µL/min/mg
CCOc1cc(-c2c(C)[nH]c3cc(OC)c(Cl)cc3c2=O)ccc1F | chromatographic | – | pH 7.4 | – | logD | 2.9

SMILES | assay | test system | conditions | how to read | endpoint | value
O=C(Nc1nc2cccc(-c3ccc(CN4CCS(=O)(=O)CC4)cc3)n2n1)C1CC1 | item: chills | human rheumatoid arthritis patients | oral, 300 mg once daily, 4 weeks, regardless of relatedness | – | treatment-emergent adverse events | 5%
Cc1ccc(C(=O)N(CCCN)C(c2nc3snc(C)c3c(=O)n2Cc2ccccc2)C(C)C)cc1 (centres unmarked) | mucosal inflammation grade ≥3 (CTCAE) | human patients | intravenous, 2 mg/day | – | patients with adverse event | 0%
CNC(=O)c1cc(Oc2ccc(NC(=O)Nc3cc(C(C)(C)C)nn3-c3ccc4ncccc4c3)c(F)c2)ccn1 | item: any AESI, worst grade ≥2 | human patients | oral, dose not given, high Cmax subgroup, cycles 1-2 | – | patients with adverse events | 17%
O=C(O)CN1CCCN2CCN(Cc3ccccc3)CCCN(CC1)Cc1cccc(n1)C2 | – | 64Cu complex | 48 h, 70 °C, with: DOTA excess | – | intact complex | 95%
O=C(Nc1cccc2cccnc12)c1ccc(N2C(=O)[C@@H]3[C@H](C2=O)[C@@H]2C=C[C@H]3C2)cc1 | PAMPA | – | 16 h | – | membrane retention | 68.5 ± 3.4%
C[C@@H](Oc1ccc(S(C)(=O)=O)cc1C(=O)N1C[C@@H]2C[C@]2(c2cc(C(F)(F)F)on2)C1)C(F)(F)F | LC-MS/MS | elderly human subjects, plasma | oral, 25 mg once daily, steady state, multiple doses | – | half-life | 52.7 h
[O]=[Co].[O]=[Co][O][Co]=[O] | – | rat, male, faeces, 24-h collection | oral gavage, single, 300 mg/kg (220 mg Co/kg), day 3, vehicle 0.5% HPMC | relative to: vehicle control subtracted | cobalt concentration | 23.3 µg/g
C[C@@H](N)C1CCN(S(=O)(=O)c2cccc3cnccc23)CC1 | – | healthy volunteers | 75 mg, fasted | – | participants with orthostatic hypotension | 0%
NC/C(=C\F)COc1cccc(Cn2c(=S)[nH]c(=O)c3[nH]cnc32)c1 | – | C57BL/6J mice, liver | oral, 15 mg/kg single, 6 h | – | tissue concentration | 735 ng/mL
CC1(CNC(=O)c2ccc(C#CC#Cc3ccccc3)cc2)NC(=O)NC1=O (centres unmarked) | – | octanol/buffer | pH 7.4 | – | logD | 4.47
CN(C(=O)n1cnc(-c2cccnc2)c1)C1CCCCC1 | – | Wistar rat, cerebral cortex | oral, 10 mg/kg/day of BIA 10-2474, 72 h, repeated 5 days | – | concentration | 8.9 ± 0.2 ng/g
CNCc1ccc(-c2[nH]c3cc(F)cc4c3c2CCNC4=O)cc1 | – | patients | oral, 480 mg twice daily, all grades | – | abdominal distension incidence | 22.2%
O=C(N[C@H](Cc1c[nH]c2ccccc12)C(=O)Nc1ccncc1)c1ccc(N2CCN(c3ccc(F)cc3F)CC2)cc1F | – | Swiss Webster mouse, female, fat | oral, 50 mg/kg, 8 h, 20% HPβCD vehicle | – | concentration | 1430 nM
C=CC(=O)Nc1cc(Nc2nccc(-c3cn(C)c4ccccc34)n2)c(OC)cc1N(C)CCN(C)C | storage stability | human dried blood spot | 10 d, -80 °C, LLOQ level | – | recovery | 82.9%
Cc1cc(NC2CCN(C(=O)OC3CCN(C(=O)/C=C/CN(C)C)C3)CC2)n2ncc(C(C)C)c2n1 (centres unmarked) | Phase I dose escalation CTCAE v4.0, item: Anemia | patients with advanced solid tumours | dose not given, TIW dosing any grade | – | patients with adverse event | 18%
NC1(C(=O)N[C@@H](CCO)c2ccc(Cl)cc2)CCN(c2nc[nH]c3nccc2-3)CC1 | – | metastatic CRPC patients | 480 mg b.i.d., any grade, treatment-related, with: enzalutamide 160 mg daily | – | incidence of Anaemia | 20%
Cc1cc(-c2nccc3c2ccn3CC(=O)Nc2ccc(-c3cnccn3)cn2)ccn1 | – | healthy human volunteers | oral, 40 mg single dose, single ascending dose | – | general disorder TEAEs | 0%
COc1ccc([C@@H](O)c2cc(-c3ncnc4cc(N5CCOCC5)ccc34)c(F)cc2Cl)nn1 | – | locally advanced rectal cancer patients | 250 mg, with: capecitabine and radiotherapy | – | drug-related lymphopenia incidence | 17%
CNC(=O)c1ccc(-c2nn3c(Cc4ccc5ncccc5c4)cnc3[nH]c2=O)cc1F | – | human plasma | stored at -70 °C | – | freeze-thaw stability | 5 cycles

SMILES | assay | test system | conditions | how to read | endpoint | value
Cc1cc(Nc2ccc(S(F)(F)(F)(F)F)cc2)n2nc(C(C)(F)F)nc2n1 | – | mouse (CD-1, female), whole blood | 50 µM, 120 min, 37 °C | – | blood/plasma ratio | 0.83 ± 0.087
O=C(COc1ccc(Cl)cc1)NC12CC(c3nnc([C@H]4C[C@@H](OC(F)(F)F)C4)o3)(C1)C2 | – | humans | concentration not given | – | procedural pain | 5.3%
CC[C@H](C)CCCCC(=O)N[C@@H](CCN)C(=O)N[C@H](C(=O)N[C@@H](CCN)C(=O)N[C@H]1CCNC(=O)[C@H]([C@@H](C)O)NC(=O)[C@H](CCN)NC(=O)[C@H](CCN)NC(=O)[C@H](CC(C)C)NC(=O)[C@@H](Cc2ccccc2)NC(=O)[C@H](CCN)NC1=O)[C@@H](C)O | – | mild renal insufficiency patients, urine | IV, 0.75 mg/kg, 0-12 h, arithmetic mean | – | cumulative urinary excretion | 0.643 mg
NC1(C(=O)N[C@@H](CCO)c2ccc(Cl)cc2)CCN(c2nc[nH]c3nccc2-3)CC1 | – | human patients aged >=sample A years | 400 mg | – | likelihood of AE-led dose modification | 58.7%
Cc1cc(C)c(CNC(=O)c2cc(Cl)c3c(c2C)O[C@@](C)([C@H]2CC[C@H](N(C)C)CC2)O3)c(=O)[nH]1 | – | relapsed/refractory NHL patients | oral, 200 mg once daily, onset after cycle 1 day 1 | – | grade ≥3 adverse event Anemia | 25%
COc1ccc2c(c1)CN(C(=O)CCN1CCC(Cc3ccccc3)CC1)CC[S@@+]2[O-] | – | human plasma | 100 ng/mL | – | fu | 0.115
COc1ccc2c(=O)n(C)c(-c3ccccc3)nc2c1 | – | Sprague-Dawley rat, male, kidney | oral, 30 mg/kg, 4 h | relative to: kidney over plasma | tissue/plasma ratio | 6.88
CC(C(=O)NCC(=O)NCC(CNC(=O)CNC(=O)C(C)N1CCN(CC(=O)[O-])CCN(CC(=O)[O-])CCN(CC(=O)[O-])CC1)(CNC(=O)CNC(=O)C(C)N1CCN(CC(=O)[O-])CCN(CC(=O)[O-])CCN(CC(=O)[O-])CC1)CNC(=O)CNC(=O)C(C)N1CCN(CC(=O)[O-])CCN(CC(=O)[O-])CCN(CC(=O)[O-])CC1)N1CCN(CC(=O)[O-])CCN(CC(=O)[O-])CCN(CC(=O)[O-])CC1.[Gd+3].[Gd+3].[Gd+3].[Gd+3] (centres unmarked) | – | cynomolgus monkey, kidney cortex | dose not given, day 58 | – | lanthanide concentration | 0.47 ± 0.32 nmol/g
O=C(O)c1cccc(C(=O)O)c1 | – | betaine/glycerol DES-water | DES mass fraction 0.30 | – | apparent dissolution enthalpy | 4.27 kcal/mol
C#C[C@]1(O)CC[C@H]2[C@@H]3CCc4cc(O)ccc4[C@H]3CC[C@@]21C | – | fed state dissolution | 1.25 h | – | cumulative release in stomach | 82%
CCOC(=O)N1C[C@@H](c2cnc(-c3ccccc3)nc2)N[C@@H](c2ccc(-c3ccccc3)cc2)C1 | shake-flask, 1-octanol/buffer | – | pH 7.4 | – | logD | > 4.7
CSc1cc(C)nc(SC)c1NC(=O)CN1CCN(CCSc2nc3ccccc3[nH]2)CC1.Cl | – | mouse Crl:CD1 (ICR), female, cerebrum | intranasal, 10 µL of GA solution once daily for 7 days, 120 min after last dose | – | tissue concentration | 1.5 ng/g and 1 ng/g and 1.6 ng/g
CCO[C@H]1CCN(Cc2c(OC)cc(C)c3[nH]ccc23)[C@H](c2ccc(C(=O)O)cc2)C1 | – | PNH patients, active haemolysis | oral, 25 mg, 4 weeks, treatment | – | incidence of haematuria | 0%
COc1cc(C(=O)N2CCC3(CC2)CC(=O)c2c(cnn2C(C)C)C3)cc(-c2ccc(C(=O)O)cc2)n1 | direct measurement | human, fasting serum | 40 mg once daily, day 13, adjusted geometric mean | – | LDL cholesterol change from baseline | 1.8%
O=c1cc(-c2ccc(O)cc2)oc2c([C@@H]3OC[C@H](O)[C@H](O)[C@H]3O)c(O)c([C@@H]3O[C@H](CO)[C@@H](O)[C@H](O)[C@H]3O)c(O)c12 | UHPLC-MS/MS | C57BL/6J mouse, spleen | oral, dose not given | – | tissue concentration | 0.23 ng/g
Cc1ccc(Sc2ccccc2N2CCNCC2)c(C)c1 | item: metrorrhagia | healthy adult men | oral, 5 mg daily, 12 days | – | participants with TEAE | 0%
CC(=O)N=S(=O)(O)c1ccc(N/C=C2\C(=O)Nc3ccc4ncsc4c32)cc1 | – | octanol/buffer | 67 µM, pH 7.4 | – | logD | 0.97
CCn1c(=O)c(-c2cc(NC(=O)Nc3ccccc3)c(F)cc2Br)cc2cnc(NC)cc21 | LC-MS/MS | human, plasma | oral, 150 mg once daily | – | trough concentration | 157 ng/mL

A few entries again:
SMILES | assay | test system | conditions | how to read | endpoint | value
CCO[C@H]1CCN(Cc2c(OC)cc(C)c3[nH]ccc23)[C@H](c2ccc(C(=O)O)cc2)C1 | – | PNH patients, active haemolysis | oral, 25 mg, 4 weeks, treatment | – | incidence of haematuria | 0%
COc1cc(C(=O)N2CCC3(CC2)CC(=O)c2c(cnn2C(C)C)C3)cc(-c2ccc(C(=O)O)cc2)n1 | direct measurement | human, fasting serum | 40 mg once daily, day 13, adjusted geometric mean | – | LDL cholesterol change from baseline | 1.8%
O=c1cc(-c2ccc(O)cc2)oc2c([C@@H]3OC[C@H](O)[C@H](O)[C@H]3O)c(O)c([C@@H]3O[C@H](CO)[C@@H](O)[C@H](O)[C@H]3O)c(O)c12 | UHPLC-MS/MS | C57BL/6J mouse, spleen | oral, dose not given | – | tissue concentration | 0.23 ng/g
Cc1ccc(Sc2ccccc2N2CCNCC2)c(C)c1 | item: metrorrhagia | healthy adult men | oral, 5 mg daily, 12 days | – | participants with TEAE | 0%
CC(=O)N=S(=O)(O)c1ccc(N/C=C2\C(=O)Nc3ccc4ncsc4c32)cc1 | – | octanol/buffer | 67 µM, pH 7.4 | – | logD | 0.97
CCn1c(=O)c(-c2cc(NC(=O)Nc3ccccc3)c(F)cc2Br)cc2cnc(NC)cc21 | LC-MS/MS | human, plasma | oral, 150 mg once daily | – | trough concentration | 157 ng/mL
